Assay results of several laboratories.
Each numbered part is a random draw from the data of one study; scales do not carry over between parts. Changes are numbered by the printed parent chain.

Set 1 — technique: RNA Bind-n-Seq; form: RNA; sample: in vitro; concentration: 100 nM; reference: input RNA pool; reading: higher = stronger binding; quantity: bound/input enrichment
Target: RING finger protein unkempt homolog, zinc fingers 1-6, SBP tag (UNK, Homo sapiens, UniProt Q9C0B0, residues 30-357)
Sequence of UniProt Q9C0B0 (30-357, looked up): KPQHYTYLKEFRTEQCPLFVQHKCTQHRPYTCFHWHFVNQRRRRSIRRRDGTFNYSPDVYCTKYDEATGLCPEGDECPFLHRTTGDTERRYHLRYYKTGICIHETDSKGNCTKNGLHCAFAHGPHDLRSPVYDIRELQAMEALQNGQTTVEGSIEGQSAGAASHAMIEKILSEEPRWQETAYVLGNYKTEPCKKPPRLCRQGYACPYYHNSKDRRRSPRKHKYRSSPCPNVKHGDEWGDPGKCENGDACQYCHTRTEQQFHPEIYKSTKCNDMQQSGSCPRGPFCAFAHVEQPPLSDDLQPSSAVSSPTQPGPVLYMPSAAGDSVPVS
Setting: RNA with constant flanks, vertebrate orthologous sites, ends assumed
Constant ends, left off below: GGGAGUUCUACAGUCCGACGAUC … CAACAGAGGAUUGAGCAUCA
CCUUCUGUAGAGAACAAUUUUCACUGAAGCCAUUGGCAAAUUCCCCCCACCAGACUUUUCUUUGGAGCUCUUUCAUUUCGUACAAUCUUGCUGUGUUGGUCAUUGUUAGCCCUGAAUCCA: 0.823 ratio
UUUACAAUCUACUUAAGUAGGUUUUUACAUACCACAUGAAGCCUUCAUUUUACAUAUUUACAGCUUUUCUGUUUUCCAGAUGAAAUCAAAGAAUUUAAUGCUCAAAGUUAAAUGUGGUCU: 0.35 ratio
CAGGGAUGGCCCUAAUCCCACCUCUGUUUAUUCUGUAAACUACAACCUGUAAAUAACGUUUAGCAUUCCUAUUGUAACAAAAUUAAUUUUUAUGAAAUAAAUUAUAUUUCCUAGUCUAAU: 1.23 ratio
GUGAGGGUCUACUGACCACUCACUGUUCUGUCUGGUAUCUGUAAACACUCUUUUUGUUCUUAGUCUUUUUCUUGUAUAAUUGAUGUUCUUUAAAAUUGUUAAUGUAUAACAGGGCUUAUG: 2.99 ratio
UACCUCCUGAACUUCUAGCUUUCAAGUUGUGGCCGUUUUAGAUACUGGCUUUCUUUUCUUCAGAAUUUUUCCCUGUUUCCCACAUUCUCUUCCCCUGUUCCCAAGGUCUGACUCAUGGAU: 1.12 ratio

Set 2 — technique: competition protein-binding microarray; form: double-stranded DNA, one strand shown; sample: in vitro; concentration: 2 µM; together with: Cbf1 competitor, 0.05 µM; reading: higher = stronger binding; quantity: fluorescence intensity; constant ends, left off below: … GTCTTGATTCGCTTGACGCTGCTG
Target: Phosphate system positive regulatory protein PHO4, full length, GST-tagged (PHO4, Saccharomyces cerevisiae, UniProt P07270, residues 1-312)
Setting: whole 60-bp probe, lowest competitor level
Construct (chain): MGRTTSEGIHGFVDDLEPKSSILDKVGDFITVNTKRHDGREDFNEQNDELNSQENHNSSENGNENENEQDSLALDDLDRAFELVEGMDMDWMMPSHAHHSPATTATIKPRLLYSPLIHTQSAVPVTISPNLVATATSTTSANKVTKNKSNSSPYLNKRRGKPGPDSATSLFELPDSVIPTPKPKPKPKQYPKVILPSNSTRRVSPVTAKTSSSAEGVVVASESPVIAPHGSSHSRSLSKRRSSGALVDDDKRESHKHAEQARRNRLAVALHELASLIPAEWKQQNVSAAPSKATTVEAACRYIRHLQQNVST
AGCAGTTTGAATTGTCATGTGCAAACAACCAGCAAT: 8230 a.u.
CTTTCCCGATCTTGCAGTGTGGGTGTAGCACATTTG: 5390 a.u.
CCAAAAGCGTCATTCCACGTGGACCCGCTTAGTTTA: 16000 a.u.
CTAACGAAGGTTTGAAACGTGGGTGACAAGCCAAGT: 12600 a.u.
AGGTTTACACAATCGCACGTGATGGTATATTTGCCA: 15700 a.u.
AAAGTTCTTTTTCAACACGTGCTTTTAATCAGCATT: 16500 a.u.
TTTTCAATCGTTGGCTACGTGCGGACACTTGTTTTG: 8080 a.u.
CTTTCCCGATCTTGTCACCCCACTTTAGCACATTTG: 4510 a.u.
TCTCGAAACAATTGCAATGTGACGGTCTTGTTAGGC: 4390 a.u.
CTTCTGTAAATTTGGTCAGTGGGTGGACGCGCCCCG: 3950 a.u.
AATCTCGGTGAATTAACCGTGATGGATCACTTAGGT: 3930 a.u.
CGCAGTCAGCGAGCCCACGTGCTTGTGTTGACTGGA: 17200 a.u.
AATGCTTTATATAACCATGTGTTTGAATTAGCGATC: 10500 a.u.
GTCTTGTCTCATTCTCACGTGTTTTTCCCCACTTCA: 14700 a.u.
AAAGCGGTAATTTGGACGGTGGGTGCAGATATCTAT: 4050 a.u.
TAGGTGTTAAGAAAGCACGTGCCGATAGGGGTTTAG: 18200 a.u.
AAAGCGGTAATTTGAGTGGTGGGTGCAGATATCTAT: 5430 a.u.
CTTTCCCGATCTTGTCACGTTACTTTAGCACATTTG: 7300 a.u.
AAAGCGGTAATTTGAATCGTGGGTGCAGATATCTAT: 8200 a.u.

Set 3 — technique: DHFR PCA, deep sequencing; sample: yeast; together with: (+)-ABA 0.032 µM; reference: wild-type fitted maximum; reading: higher = stronger binding; quantity: relative binding score
Target: ABI1, truncated, D143A, DHFR fusion (Arabidopsis thaliana)
Setting: methotrexate growth selection, single substitutions
Starting sequence: PYL1, truncated, DHFR fusion (Arabidopsis thaliana); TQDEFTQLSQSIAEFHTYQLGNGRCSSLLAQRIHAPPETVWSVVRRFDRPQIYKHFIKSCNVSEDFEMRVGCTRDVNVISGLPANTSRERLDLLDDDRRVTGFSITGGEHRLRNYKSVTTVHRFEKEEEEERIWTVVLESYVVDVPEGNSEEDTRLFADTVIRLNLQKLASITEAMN; partner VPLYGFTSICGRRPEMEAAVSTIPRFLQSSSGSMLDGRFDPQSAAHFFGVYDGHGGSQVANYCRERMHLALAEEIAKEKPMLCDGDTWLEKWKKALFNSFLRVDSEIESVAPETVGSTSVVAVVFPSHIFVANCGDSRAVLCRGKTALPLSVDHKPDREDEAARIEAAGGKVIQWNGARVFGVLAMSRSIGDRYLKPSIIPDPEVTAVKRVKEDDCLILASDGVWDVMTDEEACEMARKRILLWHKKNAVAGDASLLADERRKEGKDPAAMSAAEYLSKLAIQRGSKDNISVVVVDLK
V143L: -2.99%
S63M: 8.25%
S104D: -8.28%
T1D: 23.6%
F5E: -2.39%
T6G: 29.9%
D96L: -1.51%
V44G: -0.952%
N114W: 0.287%
Q7A: 36.1%
I57E: -15.7%
T17R: 2.19%
A158S: -3.41%
D75V: 35.2%

Set 4 — target: CCNA1, cyclin fold, Cln2 fusion (human); technique: yeast growth competition, sequencing; sample: yeast; setting: weak parent motif; reference: not given; reading: higher = stronger binding; quantity: normalised enrichment score
Starting sequence: CDC6 docking peptide (human); TLKGRRLVFDNQL
TLKKRRLVFDNQL [G4K]: -0.222
TLKGTRLVFDNQL [R5T]: 0.35
TLKGRRLVRDNQL [F9R]: 0.121
TLKGRRLYFDNQL [V8Y]: -0.0463
TLKGRRLVFINQL [D10I]: 0.388
TLKGRRLVFDNDL [Q12D]: 0.325
LLKGRRLVFDNQL [T1L]: 0.214
TLKGRRLVFDNQR [L13R]: 0.232
TLKGGRLVFDNQL [R5G]: 0.123
TLKGRRLVFDNQY [L13Y]: 0.218
TLKGRRLEFDNQL [V8E]: 0.334
WLKGRRLVFDNQL [T1W]: 0.548
TMKGRRLVFDNQL [L2M]: 0.0475
TLKGRRLVFGNQL [D10G]: -0.221
GLKGRRLVFDNQL [T1G]: 0.495
TLKGRRLVFDNQA [L13A]: 0.552
